Measurements gathered from unrelated publications.
Each line is one published result; not all experiments were run side by side.
Chain of UniProt Q9Y2H1 (whole entry, looked up): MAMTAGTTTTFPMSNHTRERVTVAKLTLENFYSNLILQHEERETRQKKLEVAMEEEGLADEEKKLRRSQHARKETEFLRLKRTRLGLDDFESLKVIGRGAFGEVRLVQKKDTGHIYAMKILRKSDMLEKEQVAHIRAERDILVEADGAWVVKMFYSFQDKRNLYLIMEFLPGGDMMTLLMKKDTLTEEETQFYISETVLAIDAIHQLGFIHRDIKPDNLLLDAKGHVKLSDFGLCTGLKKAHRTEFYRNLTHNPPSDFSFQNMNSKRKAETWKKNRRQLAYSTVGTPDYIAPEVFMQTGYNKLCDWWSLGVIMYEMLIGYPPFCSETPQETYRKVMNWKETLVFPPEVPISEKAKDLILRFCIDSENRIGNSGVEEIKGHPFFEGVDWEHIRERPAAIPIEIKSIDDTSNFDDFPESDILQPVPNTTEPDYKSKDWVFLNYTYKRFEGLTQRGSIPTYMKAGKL
Chain of UniProt Q9Y4K4 (whole entry, looked up): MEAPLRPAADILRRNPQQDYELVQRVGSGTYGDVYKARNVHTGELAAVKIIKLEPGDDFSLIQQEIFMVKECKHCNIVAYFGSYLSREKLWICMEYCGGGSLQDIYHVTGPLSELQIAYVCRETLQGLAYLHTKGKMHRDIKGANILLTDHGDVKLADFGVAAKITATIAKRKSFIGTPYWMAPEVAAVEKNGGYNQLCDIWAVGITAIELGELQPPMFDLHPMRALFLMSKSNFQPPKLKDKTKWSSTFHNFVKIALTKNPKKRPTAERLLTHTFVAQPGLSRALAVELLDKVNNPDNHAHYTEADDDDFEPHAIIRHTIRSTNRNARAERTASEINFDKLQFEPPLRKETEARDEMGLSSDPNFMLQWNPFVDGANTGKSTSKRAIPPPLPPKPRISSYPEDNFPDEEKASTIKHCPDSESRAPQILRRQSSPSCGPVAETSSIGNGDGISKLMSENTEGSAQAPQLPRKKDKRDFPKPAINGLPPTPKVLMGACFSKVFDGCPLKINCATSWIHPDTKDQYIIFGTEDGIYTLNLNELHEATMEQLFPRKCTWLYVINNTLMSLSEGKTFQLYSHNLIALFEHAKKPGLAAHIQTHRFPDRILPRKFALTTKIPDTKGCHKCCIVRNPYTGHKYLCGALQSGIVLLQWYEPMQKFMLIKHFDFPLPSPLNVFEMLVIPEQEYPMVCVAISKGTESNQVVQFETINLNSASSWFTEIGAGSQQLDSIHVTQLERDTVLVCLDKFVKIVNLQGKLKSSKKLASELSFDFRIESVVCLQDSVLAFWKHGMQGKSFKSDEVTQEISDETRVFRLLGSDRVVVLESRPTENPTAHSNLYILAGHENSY
Chain of UniProt Q9UIK4 (whole entry, looked up): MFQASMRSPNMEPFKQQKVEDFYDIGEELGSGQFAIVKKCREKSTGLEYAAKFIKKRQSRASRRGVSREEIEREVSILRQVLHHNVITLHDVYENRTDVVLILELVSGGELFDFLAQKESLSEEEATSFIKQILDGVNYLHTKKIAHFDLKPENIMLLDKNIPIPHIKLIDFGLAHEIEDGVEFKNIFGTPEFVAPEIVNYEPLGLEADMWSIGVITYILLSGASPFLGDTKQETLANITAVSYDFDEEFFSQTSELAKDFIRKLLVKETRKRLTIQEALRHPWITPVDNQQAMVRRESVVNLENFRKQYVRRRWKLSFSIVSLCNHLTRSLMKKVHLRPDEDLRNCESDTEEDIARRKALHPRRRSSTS
Chain of UniProt Q9P1W9 (whole entry, looked up): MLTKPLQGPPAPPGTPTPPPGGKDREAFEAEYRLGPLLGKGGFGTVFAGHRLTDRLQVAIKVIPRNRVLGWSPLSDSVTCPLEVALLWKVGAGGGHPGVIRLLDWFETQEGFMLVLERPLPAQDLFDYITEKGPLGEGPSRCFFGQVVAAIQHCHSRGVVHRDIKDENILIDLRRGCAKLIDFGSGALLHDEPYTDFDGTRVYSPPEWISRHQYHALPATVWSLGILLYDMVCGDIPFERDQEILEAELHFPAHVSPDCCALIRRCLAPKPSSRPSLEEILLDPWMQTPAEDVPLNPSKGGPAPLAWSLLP
Chain of UniProt Q9UQM7 (whole entry, looked up): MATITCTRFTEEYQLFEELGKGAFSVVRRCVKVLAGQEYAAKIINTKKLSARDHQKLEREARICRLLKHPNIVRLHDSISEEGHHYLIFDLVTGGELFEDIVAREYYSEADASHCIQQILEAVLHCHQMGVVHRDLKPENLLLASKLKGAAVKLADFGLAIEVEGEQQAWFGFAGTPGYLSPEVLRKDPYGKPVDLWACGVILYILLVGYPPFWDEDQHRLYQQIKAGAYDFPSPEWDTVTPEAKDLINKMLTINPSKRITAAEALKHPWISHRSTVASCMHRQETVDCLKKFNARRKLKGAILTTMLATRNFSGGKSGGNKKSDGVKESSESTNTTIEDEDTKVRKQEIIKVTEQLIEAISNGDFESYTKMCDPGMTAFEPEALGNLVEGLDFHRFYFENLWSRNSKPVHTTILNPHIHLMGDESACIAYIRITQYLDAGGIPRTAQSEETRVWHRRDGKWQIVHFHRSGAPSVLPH

`COc1cccc(-c2n[nH]c(SCc3ccccn3)n2)c1OC` gave a concentration of 9.2 ng/mL (female Sprague-Dawley rat, plasma; oral, 100 mg/kg, 24 h, single dose).
For `C[C@@H]1CC[C@@H]([C@@](O)(CNCc2ccccc2)COCc2ccccc2)[C@H](OCc2ccccc2)C1`, the inhibition was 99% (A2780; cell growth or viability, MTT; 10 µM, 72 h).
`OCc1ccc(-c2nn(Cc3ccccc3Cl)c3ccccc23)o1` has an inhibition of 63% (RBE; cell growth or viability, ATP luminescence; 46 µM, 72 h).
`CC1(C)C[C@H]2[C@H]1CC[C@]1(C)CCC[C@@]2(n2cc(-c3ccc(F)cc3)nn2)C1` has an inhibition of 36.2% (HT-29; cell growth or viability, CCK-8; 50 µM).
`Cc1cc(=O)oc2ccc(-c3cc(-c4cccc([N+](=O)[O-])c4)nc(N)n3)c(O)c12` has an inhibition of 95% (KB; cell growth or viability, MTT; 128 µg/mL, 72 h).
For `COc1ccc(CNC[C@](O)(COCc2ccc(F)cc2)[C@@H]2CC[C@@H](C)C[C@H]2OCc2ccc(F)cc2)cc1`, the inhibition was 95.5% (HeLa; cell growth or viability, MTT; 30 µM, 72 h).
`CN(C)C(=O)c1cn([C@@]23CCC[C@@](C)(CC[C@@H]4[C@@H]2CC4(C)C)C3)nn1` has an inhibition of < 50% (HT-29; cell growth or viability, CCK-8; 10 µM).
For `Cc1ccc(-c2cc(-c3ccc4oc(=O)cc(C)c4c3O)nc(N)n2)cc1`, the inhibition was 0% (KB; cell growth or viability, MTT; 2 µg/mL, 72 h).
The remaining activity of `COc1cc(-c2cncc3c2CN(C)Cc2cc(N4CCNCC4)ccc2-3)cc(OC)c1OC` is reported as 101% (STK38L (Homo sapiens, UniProt Q9Y2H1); enzyme activity, inhibitor; 1 µM).
`Cc1cc(Nc2ncc(Cl)c(Nc3ccccc3S(=O)(=O)C(C)C)n2)c(OC(C)C)cc1C1CCNCC1` gave an inhibition of -4.3% (KARPAS-299; cell growth or viability, MTT; 0.00229 µg/mL, 72 h).
With `CCC(=CCc1c(O)cc2c(c1O)C(=O)CC(c1ccc(O)cc1)O2)CC` (stereo in doubt) the inhibition was 99.8% (HeLa; cell growth or viability, MTT; 100 µM, 48 h).
For `C[C@@H](Oc1cc(-c2cnn(C3CCNCC3)c2)cnc1N)c1c(Cl)ccc(F)c1Cl`, the inhibition was 19.5% (KARPAS-299; cell growth or viability, MTT; 0.0016 µg/mL, 72 h).
With `CNc1ncc2c(/C=C/C(=O)N3CCC(OC)CC3)nn(Cc3cccc(C(F)(F)F)c3)c2n1` the remaining activity was 95% (CAMK2A (Homo sapiens, UniProt Q9UQM7); enzyme activity, inhibitor, radiometric; 1 µM).
With `COc1ccccc1CNC[C@@](C)(O)[C@@H]1CC[C@@H](C)C[C@H]1OCc1ccccc1` the inhibition was 82.4% (HeLa; cell growth or viability, MTT; 30 µM, 72 h).
`CCCN(O)N=Nc1ccc(S(=O)(=O)Nc2onc(C)c2C)cc1` has an inhibition of 56.5% (ABTS scavenging; 300 µg/mL).
`CCN(Cc1cccnc1)c1ccc(CO)c(Cl)c1` gave an inhibition of 54% (RBE; cell growth or viability, ATP luminescence; 46 µM, 72 h).
`CCCCCCCCCCCCCCCCCCOc1cccc(CC(=O)OCC[N+](CC)(CC)CC)c1` gave an inhibition of 40.5% (NCI-H226; cell growth or viability, SRB; 10 µM).
`C[C@@H]1CC[C@@H]([C@](C)(O)Cn2ccnc2)[C@H](OCc2ccccc2)C1` gave an inhibition of 59.7% (HeLa; cell growth or viability, MTT; 30 µM, 72 h).
`Cc1nc(Nc2ncc(C(=O)Nc3c(C)cccc3Cl)s2)cc(N2CC[C@H](O)C2)n1` has an inhibition of 37% (MOLT-4; cell growth or viability, ATP luminescence; 10 µM, 72 h).
With `COc1cccc(CNC[C@@](C)(O)[C@@H]2CC[C@@H](C)C[C@H]2OCc2ccccc2)c1` the inhibition was 95.3% (A2780; cell growth or viability, MTT; 30 µM, 72 h).
`OCc1cccc(-c2nn(Cc3ccccc3)c3ccccc23)c1` gave an inhibition of 28% (RBE; cell growth or viability, ATP luminescence; 46 µM, 72 h).
With `C=CC(=O)N1CCC(COCC(=O)N2CCN(c3nc(-c4cnc(N)nc4C(F)F)nc(N4CCOC[C@@H]4C)n3)CC2)CC1` the remaining binding was 96% (MAP4K5 (Homo sapiens, UniProt Q9Y4K4); binding, competition with immobilised ligand; 1 µM).
The remaining binding of `Cc1cc([C@@H](C)Nc2ccccc2C(=O)O)c2nc(N3CCC(F)(F)CC3)c(C#N)c(=O)n2c1` is reported as 91% (PIM2 (Homo sapiens, UniProt Q9P1W9); binding, competition with immobilised ligand; 1 µM).
`COc1ccc(-c2cc(-c3ccc4oc(=O)cc(C)c4c3O)nc(N)n2)cc1` gave an inhibition of 11% (KB; cell growth or viability, MTT; 32 µg/mL, 72 h).
The inhibition of `CCC(=CCc1c(O)cc2c(c1O)C(=O)C[C@H](c1ccccc1O)O2)CC` is reported as 3.88% (HeLa; cell growth or viability, MTT; 3.75 µM, 48 h).
For `CC(O)c1ccc(-c2nn(Cc3ccccc3)c3ccccc23)o1` (stereo not shown), the inhibition was 64% (RBE; cell growth or viability, ATP luminescence; 46 µM, 72 h).
With `Cc1cc(=O)oc2ccc(-c3cc(-c4ccccc4)nc(N)n3)c(O)c12` the inhibition was 47% (KB; cell growth or viability, MTT; 128 µg/mL, 72 h).
`C[C@@H]1CC[C@@H]([C@](O)(CNCc2ccccc2)COCc2ccc(F)cc2)[C@H](OCc2ccc(F)cc2)C1` has an inhibition of 98.8% (HeLa; cell growth or viability, MTT; 30 µM, 72 h).
`OCc1ccc(-c2nn(CC3CCCCC3)c3ccccc23)o1` gave an inhibition of 82% (RBE; cell growth or viability, ATP luminescence; 46 µM, 72 h).
The inhibition of `O=S(=O)(Nc1nccs1)c1ccc(N=NN(O)c2ccccc2)cc1` is reported as 99.8% (ABTS scavenging; 300 µg/mL).
With `CCCCC(=O)Nc1ccc(-c2ccc3ncn(CCC)c(=O)c3c2)cn1` the remaining binding was 100% (DAPK2 (Homo sapiens, UniProt Q9UIK4); binding, competition with immobilised ligand; 0.5 µM).
The inhibition of `OCc1ccc(-c2ccc(-c3ccc(CO)s3)o2)s1` is reported as 60.3% (RBE; cell growth or viability, ATP luminescence; 46 µM, 72 h).
With `C[C@@H]1CC[C@@H]([C@@](C)(O)Cn2cnc3ccccc32)[C@H](OCc2ccccc2)C1` the inhibition was 61.6% (HeLa; cell growth or viability, MTT; 10 µM, 72 h).
With `COc1ccc(Cn2nc(-c3ccc(CO)o3)c3ccccc32)cc1` the inhibition was 70% (RBE; cell growth or viability, ATP luminescence; 46 µM, 72 h).
The inhibition of `CC1(C)C[C@H]2[C@H]1CC[C@]1(C)CCC[C@@]2(n2cc(CNC(N)=O)nn2)C1` is reported as 93.8% (HT-29; cell growth or viability, CCK-8; 50 µM).
With `Cc1cc(=O)oc2ccc(-c3cc(-c4cccs4)nc(N)n3)c(O)c12` the inhibition was 0% (KB; cell growth or viability, MTT; 32 µg/mL, 72 h).
`C=C(C)[C@@H]1CC[C@@H](C)C[C@H]1OCc1ccccc1` gave an inhibition of 36% (HeLa; cell growth or viability, MTT; 10 µM, 72 h).
With `Cc1cc(=O)oc2ccc(-c3cc(-c4cccc(Cl)c4)nc(N)n3)c(O)c12` the inhibition was 26% (KB; cell growth or viability, MTT; 128 µg/mL, 72 h).
For `OCc1ccc(-c2nn(Cc3ccccc3)c3cccnc23)o1`, the inhibition was 65% (RBE; cell growth or viability, ATP luminescence; 46 µM, 72 h).
For `CC1(C)C[C@H]2[C@H]1CC[C@]1(C)CCC[C@@]2(NS(=O)(=O)c2cc(Cl)cc(Cl)c2O)C1`, the inhibition was 93.9% (HT-29; cell growth or viability, CCK-8; 50 µM).

Excerpt of the above:
With `COc1ccccc1CNC[C@@](C)(O)[C@@H]1CC[C@@H](C)C[C@H]1OCc1ccccc1` the inhibition was 82.4% (HeLa; cell growth or viability, MTT; 30 µM, 72 h).
`CCCN(O)N=Nc1ccc(S(=O)(=O)Nc2onc(C)c2C)cc1` has an inhibition of 56.5% (ABTS scavenging; 300 µg/mL).
`CCN(Cc1cccnc1)c1ccc(CO)c(Cl)c1` gave an inhibition of 54% (RBE; cell growth or viability, ATP luminescence; 46 µM, 72 h).
